{"data": "Assay results collected from several papers", "note": "Numbered parts are unrelated; each lists some results of a single study."}
{"data": "Series 1", "target": "Centromere-binding protein 1, full length, N-terminal tag (CBF1, Saccharomyces cerevisiae, UniProt P17106, residues 1-351)", "technique": "protein-binding microarray", "form": "double-stranded DNA, one strand shown", "sample": "in vitro", "concentration": "0.8 µM", "notes": "whole 60-bp probe, no competitor", "direction": "higher = stronger binding", "all sequences stand within": "… GTCTTGATTCGCTTGACGCTGCTG", "UniProt P17106, sequence (whole entry, looked up)": "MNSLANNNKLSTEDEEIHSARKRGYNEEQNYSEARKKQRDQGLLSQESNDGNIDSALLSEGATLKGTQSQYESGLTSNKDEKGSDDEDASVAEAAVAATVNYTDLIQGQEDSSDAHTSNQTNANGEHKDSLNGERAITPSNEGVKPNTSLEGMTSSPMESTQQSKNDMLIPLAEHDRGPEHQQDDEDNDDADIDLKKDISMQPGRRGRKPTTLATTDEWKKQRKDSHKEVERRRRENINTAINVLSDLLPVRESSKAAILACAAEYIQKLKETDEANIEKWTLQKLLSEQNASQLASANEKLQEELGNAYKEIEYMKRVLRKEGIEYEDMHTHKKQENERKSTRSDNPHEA"}
{"Oligonucleotide": "GAAGTAGTAGACCTACACGGGATGAAGGATATCTAG", "fluorescence intensity [a.u.]": 514}
{"Oligonucleotide": "CCTAACTACTATACAGGTGAGTGATAGCTTCGTACA", "fluorescence intensity [a.u.]": 553}
{"Oligonucleotide": "CTACAAATGGATCAAGGTGATGCTTATGCATAATTC", "fluorescence intensity [a.u.]": 515}
{"Oligonucleotide": "GAAGCAATTTCCGATCACCTCTCATGCGAATATTAG", "fluorescence intensity [a.u.]": 568}
{"Oligonucleotide": "CTAAATCGTGGTCGGAACGTGCAATATATGAGATTC", "fluorescence intensity [a.u.]": 617}
{"Oligonucleotide": "CTATCGGAAGGTATTTAGGTGACCTTGCGGCTTTTC", "fluorescence intensity [a.u.]": 500}
{"Oligonucleotide": "CTATGCTATAACTCGGTGGTGATGACCTCAGTGTTC", "fluorescence intensity [a.u.]": 524}
{"data": "Series 2", "target": "Interferon regulatory factor 7, full length, phosphomimetic (IRF7, Homo sapiens, UniProt Q92985, residues 1-503, S471D/S472D/S475D/S476D/S477D/S483D/S484D/S487D)", "technique": "protein-binding microarray", "form": "double-stranded DNA, one strand shown", "sample": "in vitro", "concentration": "2200 nM top", "notes": "60-bp whole probe", "with": "salmon DNA 0.4 mg/ml", "reference": "random background probes", "direction": "higher = stronger binding", "all sequences stand within": "GCCTAGCAC … GTCTTGATTCGCTTGACGCTGCTG", "Construct (chain)": "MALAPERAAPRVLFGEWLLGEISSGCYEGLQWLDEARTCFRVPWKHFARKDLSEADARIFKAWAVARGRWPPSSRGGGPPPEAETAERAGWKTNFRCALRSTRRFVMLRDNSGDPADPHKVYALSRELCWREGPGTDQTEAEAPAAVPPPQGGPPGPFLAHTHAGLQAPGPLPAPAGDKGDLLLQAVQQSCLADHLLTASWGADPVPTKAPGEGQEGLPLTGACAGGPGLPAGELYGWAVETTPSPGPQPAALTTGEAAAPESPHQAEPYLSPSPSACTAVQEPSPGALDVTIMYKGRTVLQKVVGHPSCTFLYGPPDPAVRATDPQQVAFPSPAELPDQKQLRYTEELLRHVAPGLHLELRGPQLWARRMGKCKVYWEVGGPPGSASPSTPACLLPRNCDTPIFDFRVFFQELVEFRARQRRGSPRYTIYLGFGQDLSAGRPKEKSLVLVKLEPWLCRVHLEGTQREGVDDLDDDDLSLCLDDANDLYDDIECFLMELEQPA"}
{"Oligonucleotide": "ATGACCTCACTGCCTGACACGTGCTAG", "fitted relative affinity": "0.953 z-score"}
{"Oligonucleotide": "TTGCATCGTAAGCAAAAATGGTGCTAG", "fitted relative affinity": "-0.0665 z-score"}
{"Oligonucleotide": "TTAGGTATCCTACTGCTTTGGTGCTAG", "fitted relative affinity": "0.66 z-score"}
{"Oligonucleotide": "GACGGTATCCTTCTCCTGAAGTGCTAG", "fitted relative affinity": "0.966 z-score"}
{"Oligonucleotide": "GACTGTCTCCTACTGCTGACGTGCTAG", "fitted relative affinity": "1.17 z-score"}
{"Oligonucleotide": "GACGGTTTCCTTTCACTGACGTGCTAG", "fitted relative affinity": "5.55 z-score"}
{"Oligonucleotide": "GACGAGCTGGGGTATCGAGACGTGCTA", "fitted relative affinity": "-0.256 z-score"}
{"data": "Series 3", "target": "RNA binding protein fox-1 homolog 2, RRM domain, GST-SBP tag (RBFOX2, Homo sapiens, UniProt O43251-10, residues 100-194)", "technique": "RNA Bind-n-Seq", "form": "RNA", "sample": "in vitro", "concentration": "365 nM", "notes": "natural RNA segment, single round, ends assumed", "reference": "no-protein control", "direction": "higher = stronger binding", "all sequences stand within": "GGGAGUUCUACAGUCCGACGAUC … UGGAAUUCUCGGGUGCCAA"}
{"Oligonucleotide": "CAGUCACCAGGGAGCUCACUUUCCACUUGGAGACGCUUUGCUCUGCUUGUGCACCGCCAGCUUCUGUCUCCAGAAAAGUGUAACUUUGCUCUGUUUCUGCAUGAAGCACA", "RBNS enrichment (R)": 2.24}
{"Oligonucleotide": "ACCUUUUAGGCAGUUUUUCUGCAUUGAUUUCAUGAAAGAAGCUAUACAUUAGCUAAUACUAACCACAUAGAAUAUCAGACUUAGAUACGUGAAUAAGGAUCCUGUGGGCA", "RBNS enrichment (R)": 0.899}
{"Oligonucleotide": "CCAAUCUUAUAUGAAUAUUUUUCAUAAAAUAGUUGUGAUUAUAUUUUUACAUCUUUUAUGCACCAAAUUAUAAUGGUCACAUAUGUUUAGCCCGUUGCCACUGUUCGGGA", "RBNS enrichment (R)": 0.673}
{"Oligonucleotide": "AUCUCAAGAUCUUCCAGUGCAUAUACACUCACGUGGGAGAGCACUUCAUAUCCACCAAGCAGACAUAACCUAAGGAAUGUUAGUCCACUGAGCAGUUAAAAAACACUGAC", "RBNS enrichment (R)": 0.445}
{"Oligonucleotide": "GAAUGUUUUAGAGAAGGAAAUUCAAAAAAUGUUGUAACUGAAAGCACUGUUGAAUAUGGGUAUCGGCUUUCUUUUUCACUUUGACUCUUAACAUUAUCAGUCAACUUCCA", "RBNS enrichment (R)": 0.642}
{"Oligonucleotide": "CCUCUUGCAAAGUAGCCUCUUUCAUCCCAUACUCAAAAUACCCAGUUUAGCAAGCAACUGAGAUUUAAGUCUCUCUGGCCCUAAGAGGUUUUUCCUCUUUGCUCCCUCCA", "RBNS enrichment (R)": 5.09}
{"Oligonucleotide": "AGAGAAGGUCUCCUCUGUGCUCCAUCCACACAGGAUGCCGGAGAGACAGCCCCUUGUGCUGUGAGCAGAGCAGGCAGUGGCUCUGGAGGCUGCCUGUGGUCUCCUUCCGG", "RBNS enrichment (R)": 0.463}
{"data": "Single results of other studies"}
{"Molecule": "PhoQ, residues 284 288 289 292 302 303 GANMMA", "target": "PhoP, residues 12 14 15 18 19 NQAHL (Escherichia coli, UniProt P23836)", "assay": "Sort-seq, refers to: YFP reporter", "test system": "E. coli", "conditions": "PhoQ-PhoP variant library, with: 10 µM Mg2+", "how to read": "reference: high Mg2+ state, higher = stronger signaling", "measurement": "fold induction", "value": 0.933}
